Assay results from different studies.
In brackets after ≈: the same amount, converted by molar mass.
Organism: Cryptococcus neoformans

CCCCCCSc1cccc(O)c(=O)c1O
MIC80 (microbial growth, broth dilution; 13 h): 1.7 µM (≈ 0.432 µg/mL)

CCCCCCCCCC1CC2CCCC3CC(CCCCCCCCC)NC(=N1)N23 (stereo not shown)
MFC (fungal growth; ATCC 90113): 2.9 µM (≈ 1.25 µg/mL)

CCCCS(=O)(=O)c1ccc(S(=O)(=O)CCCC)c(O)c(=O)c1O
MIC80 (microbial growth, broth dilution; 13 h): 100 µM (≈ 37.8 µg/mL)

CN(Cc1cc(C2CC2)on1)C(=O)c1cccc(-c2ccc3c(c2)CCO3)c1
FIC index (H99; with: flucytosine): 2

CSc1cccc(O)c(=O)c1O
MIC80 (microbial growth, broth dilution; 13 h): 28 µM (≈ 5.16 µg/mL)

C/C=C/CNC(=N)NCCCCCCCCN1CCCc2cc(F)ccc2COc2ccccc2CNC(=N)NC1=O
MIC90 (microbial growth, broth dilution; 24 h): 3.12 µg/mL (≈ 5.38 µM)

O=c1c(O)c(S(=O)(=O)Cc2ccccc2)ccc(S(=O)(=O)Cc2ccccc2)c1O
MIC80 (microbial growth, broth dilution; 13 h): 73 µM (≈ 32.6 µg/mL)

C[C@@H](c1ccn(Cc2ccc(I)cc2)n1)[C@](O)(Cn1cnnn1)c1ccc(F)cc1F
MIC (growth, broth microdilution; H99; 72 h, 30 °C, ≥50% inhibition): < 0.008 µg/mL

O=C(NCCNCCO)c1cn(Cc2ccc(F)cc2)c2cc(Cl)c(OCc3ccc(C(F)(F)F)cc3)cc2c1=O
MIC (ATCC 208821; ≥80% growth inhibition): < 0.25 µg/mL

C[C@@H](c1ccn(Cc2cc(F)c(F)c(F)c2)n1)[C@](O)(Cn1cnnn1)c1ccc(F)cc1F
MIC (growth, broth microdilution; H99; 72 h, 30 °C, ≥50% inhibition): 0.0625 µg/mL (≈ 0.135 µM)

S=c1[nH]c2cccc(Cl)c2n1CCOc1ccccc1
inhibition (Mpk1 phosphorylation, Western blot; concentration not given, with: calcofluor white; relative to: calcofluor white alone): 90%

C/C=C/CNC(=N)NCCCCCCCCN1CCCc2ccc(F)cc2COc2ccccc2CNC(=N)NC1=O
MIC90 (microbial growth, broth dilution; 24 h): 3.12 µg/mL (≈ 5.38 µM)

C[C@@H](c1ccn(Cc2c(F)cc(Cl)cc2F)n1)[C@](O)(Cn1cnnn1)c1ccc(F)cc1F
MIC (growth, broth microdilution; H99; 72 h, 30 °C, ≥50% inhibition): < 0.008 µg/mL

CCCCSc1cccc(O)c(=O)c1O
MIC80 (microbial growth; 13 h): 1 µM (≈ 0.226 µg/mL)

CCCCCCCCCC1CC2CCC3CC(CCCCCCCCC)NC(=N1)N23 (stereo not shown)
IC50 (microbial growth; ATCC90113): 2110 nM

C[C@@H](c1ccn(Cc2cccc(Cl)c2F)n1)[C@](O)(Cn1cnnn1)c1ccc(F)cc1F
MIC (growth, broth microdilution; H99; 72 h, 30 °C, ≥50% inhibition): < 0.008 µg/mL

Cc1ccc(S(=O)(=O)c2cccc(O)c(=O)c2O)cc1
MIC80 (microbial growth, broth dilution; 13 h): 38 µM (≈ 11.1 µg/mL)

COc1cc(Cn2ccc([C@H](C)[C@](O)(Cn3cnnn3)c3ccc(F)cc3F)n2)ccc1F
MIC (growth, broth microdilution; H99; 72 h, 30 °C, ≥50% inhibition): < 0.008 µg/mL

CCCCCCCCCCCCCNCC(=O)N(CC(=O)N(CCCCN)CC(=O)N(CCN)CC(=O)N(CC(N)=O)Cc1cccs1)Cc1cccs1
MIC (broth microdilution; 72 h, 35 °C): 1.56 to 3.13 µg/mL (≈ 1.97 to 3.96 µM)

C/C=C/CNC(=N)NCCCCCCCCN1CCCc2cc(Cl)ccc2COc2ccccc2CNC(=N)NC1=O
MIC90 (microbial growth, broth dilution; 24 h): 3.12 µg/mL (≈ 5.23 µM)

C[C@@H](c1ccn(Cc2ccc(Cl)cc2Cl)n1)[C@](O)(Cn1cnnn1)c1ccc(F)cc1F
MIC (growth, broth microdilution; H99; 72 h, 30 °C, ≥50% inhibition): < 0.008 µg/mL

O=c1c(O)cccc(S(=O)(=O)c2cccc3ccccc23)c1O
MIC80 (microbial growth, broth dilution; 13 h): 38 µM (≈ 12.5 µg/mL)

C[C@@H](c1ccn(Cc2cccc(C(F)(F)F)c2)n1)[C@](O)(Cn1cnnn1)c1ccc(F)cc1F
MIC (growth, broth microdilution; H99; 72 h, 30 °C, ≥50% inhibition): < 0.008 µg/mL

O=c1c(O)cccc(SCc2ccccc2)c1O
MIC80 (microbial growth, broth dilution; 13 h): 0.55 µM (≈ 0.143 µg/mL)

CCCCCC1CC2CCCC3CC(C)N=C(N1)N32 (stereo not shown)
IC50 (microbial growth; ATCC90113): 2120 nM

Repeated from above:
CSc1cccc(O)c(=O)c1O
MIC80 (microbial growth, broth dilution; 13 h): 28 µM (≈ 5.16 µg/mL)

C/C=C/CNC(=N)NCCCCCCCCN1CCCc2cc(F)ccc2COc2ccccc2CNC(=N)NC1=O
MIC90 (microbial growth, broth dilution; 24 h): 3.12 µg/mL (≈ 5.38 µM)

O=c1c(O)c(S(=O)(=O)Cc2ccccc2)ccc(S(=O)(=O)Cc2ccccc2)c1O
MIC80 (microbial growth, broth dilution; 13 h): 73 µM (≈ 32.6 µg/mL)
